# Results from different studies.
# Numbered parts are unrelated; each lists some results of a single study. Substitutions count along the parent as printed.

# Block 1
# Target: RNA binding protein fox-1 homolog 2, RRM domain, GST-SBP tag (RBFOX2, Homo sapiens, UniProt O43251-10, residues 100-194)
# Method: RNA Bind-n-Seq
# Molecule type: RNA
# Matrix: in vitro
# Tested at: 365 nM
# Setting: natural RNA segment, single round, ends assumed
# Reference: no-protein control
# Direction: higher = stronger binding
# All sequences stand within: GGGAGUUCUACAGUCCGACGAUC … UGGAAUUCUCGGGUGCCAA
# Construct (chain): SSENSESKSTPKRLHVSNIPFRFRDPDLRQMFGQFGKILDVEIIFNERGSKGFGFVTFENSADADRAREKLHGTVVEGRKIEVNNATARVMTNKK
Sequence,RBNS enrichment (R)
UUCACCCAACAACUUCCUCUGUCCUGCUGCACGGUCCAGAGUCUGGGACCGACUUUGUUUCUUUGUUAUUUAUGAUCUUGUUUAAAGAAAAUAAAUAUCUCCCAACCUUU,0.842
AGGAAAAGCUACAUACCGAAGGGCUUUUGUAUAUGAAUUCUGUGGUGGGGAGACCCAUUUGUAAUCUAUAUGGCAGUUCCAUCUGGGUUUUAAGUUUAGAUUUCACCGUG,0.387
AUUUGCACCUGAGUUGUACAUUUUUGAAGUGUGCAGGGCAGCCUGGACACAAGCUUAGAUUCUCUAUGUAUAGUUCCCCGUGUUCACUAACAUGCCCUCUCUGGAAAGCA,0.39
AUUUACAGUAUUAUUGUGAACCAUUUAACCCUUUUGAUCCAAGGCCCCGGACCAAGGGGAUACUGUAAUCAGGUUAUGUACACCAACCUCUGCAUCAGUUGCUUCUAUAG,0.281
CUCUGCUUACAUACUUCCAGGGACGGUGAGCUCACGCUCUCUCCGGGCAGCCCUGUGAGUUUCCUAUCUGUUCCAGACUAGUAUCGCCAAUCUCUCCCAGCUCUCUUCUU,0.375
UGCUGGGAUAUUUUGAAUCCCCCAAGUUCCCUUGGACCUACUGAUGAGAGAUAGUUUUAUGUAUGGGGAAAAAUGGAUACUUUUUAAACCUUUUUUGGCAGCUCAGAUGG,0.889
GGAGACGAGGGCUGGCCAAGAACCUCCUAGAGGCUGUCCCUGGACCUGGAGCUGCAGGCAUCAGAGAACCAGCCCUGCUCACGCCAUGCCCGCCCCCGCCUUCCCUCUUC,0.407
UGUUGGCCUCAGAGUCACUCCUGCCCCCUCUCCCUGACUUGGUGCUCACAUGCACCUCACUAGGGUUUGUGACCAGGGUCUGGAUGAGCUUGAAUUUGAAUGAAUUGAGU,0.587

# Block 2
# Target: CCNA2, cyclin fold, Cln2 fusion (human)
# Method: yeast growth competition, sequencing
# Matrix: yeast
# Setting: weak parent motif
# Reference: not given
# Direction: higher = stronger binding
# Starting sequence: SLBP docking peptide (human); ARYKRKLLINDFG
Variant,normalised enrichment score
F12L,1.96
L8C,0.615
A1E,0.259
F12A,0.808
N10I,1.53
K4E,0.42
I9F,4.16
L8D,0.182
R5C,2.04

# Block 3
# Target: Phosphate system positive regulatory protein PHO4, full length, GST-tagged (PHO4, Saccharomyces cerevisiae, UniProt P07270, residues 1-312)
# Method: competition protein-binding microarray
# Molecule type: double-stranded DNA, one strand shown
# Matrix: in vitro
# Tested at: 2 µM
# Setting: whole 60-bp probe, lowest competitor level
# Together with: Cbf1 competitor, 0.05 µM
# Direction: higher = stronger binding
# All sequences stand within: … GTCTTGATTCGCTTGACGCTGCTG
# Construct (chain): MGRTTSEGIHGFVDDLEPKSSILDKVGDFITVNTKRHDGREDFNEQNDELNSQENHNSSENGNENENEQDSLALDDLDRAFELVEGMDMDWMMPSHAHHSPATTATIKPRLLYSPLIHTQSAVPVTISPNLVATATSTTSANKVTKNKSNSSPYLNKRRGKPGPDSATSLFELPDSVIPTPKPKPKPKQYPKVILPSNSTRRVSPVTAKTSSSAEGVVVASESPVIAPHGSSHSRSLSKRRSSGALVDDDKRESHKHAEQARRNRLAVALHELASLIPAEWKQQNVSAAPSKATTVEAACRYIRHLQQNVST
Sequence,fluorescence intensity
AAATTACTAAGTTGAACGGTGGGTGACGCCGTATGA,3680 a.u.
CTTCTTCGTTACAGTGACGTGAGATGTTCAGCAGTC,4180 a.u.
GTCTTGTCTCATTGTCACACTACTTTCCCCACTTCA,5670 a.u.
AAAAGAGGTTCGAGTCACGTGATGGAGATTACCCGC,12000 a.u.
GTCTTGTCTCATTGCCCCGTGGGTGTCCCCACTTCA,11700 a.u.
TTTTGAGGGGAATTGATTACATTTCCTTTTTTTTTC,2690 a.u.
GCTTGGCATCCGTCCCACGTTATGTGGAGTGTTGCC,9040 a.u.
AGAATGGGCGGTTTGCACGTGAAGGTGATGTCTTGT,13000 a.u.
AAATTACTAAGTTGAGGCGTGGGTGACGCCGTATGA,7740 a.u.
GGTTCCATTAGTGATGGCGTGCTTTGCTCAACACAA,7090 a.u.
GGCGTCGCTAGCTGGCACGGCACTGATTGCGGCGGG,4160 a.u.
GCGTTTGCATAATCGCACGTCTTTCCATCGAATTAA,7490 a.u.
CTAACGAAGGTTTTTCACGTGTAGTACAAGCCAAGT,11300 a.u.
TTGGTGCTTTCTTTGCACGTTCTGCCAAAGTGTTTC,11500 a.u.

# Mixed results
Substance,target,assay,system,conditions,scale,quantity,result
"PhoQ, residues 284 288 289 292 302 303 TAVSDG","PhoP, residues 12 14 15 18 19 GHCSL (Escherichia coli, UniProt P23836)","Sort-seq, refers to: YFP reporter",E. coli,"PhoQ-PhoP variant library, together with: 10 µM Mg2+","reference: high Mg2+ state, higher = stronger signaling",fold induction,16.4

# Some of these lines once more (mixed results):
Substance,target,assay,system,conditions,scale,quantity,result
"PhoQ, residues 284 288 289 292 302 303 TAVSDG","PhoP, residues 12 14 15 18 19 GHCSL (Escherichia coli, UniProt P23836)","Sort-seq, refers to: YFP reporter",E. coli,"PhoQ-PhoP variant library, together with: 10 µM Mg2+","reference: high Mg2+ state, higher = stronger signaling",fold induction,16.4
